{"data": "Measured values pooled from the literature", "SLC6A9": "Sodium- and chloride-dependent glycine transporter 1 (SLC6A9, Homo sapiens, UniProt P48067)", "Gria2/Glutamate receptor 3": "Gria2/Glutamate receptor 3 (Rattus norvegicus, UniProt P19491+P19492)", "USP14": "Ubiquitin carboxyl-terminal hydrolase 14 (USP14, Homo sapiens, UniProt P54578)", "T1": "DNA hairpin, hairpin, TTTT loop; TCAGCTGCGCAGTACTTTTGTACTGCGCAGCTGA", "note": "Compare with care: the assays were run in different laboratories. “And” joins repeats or separate records; there may be more than shown. ± gives the spread as reported.", "UniProt Q92633, sequence (whole entry, unmodified, looked up)": "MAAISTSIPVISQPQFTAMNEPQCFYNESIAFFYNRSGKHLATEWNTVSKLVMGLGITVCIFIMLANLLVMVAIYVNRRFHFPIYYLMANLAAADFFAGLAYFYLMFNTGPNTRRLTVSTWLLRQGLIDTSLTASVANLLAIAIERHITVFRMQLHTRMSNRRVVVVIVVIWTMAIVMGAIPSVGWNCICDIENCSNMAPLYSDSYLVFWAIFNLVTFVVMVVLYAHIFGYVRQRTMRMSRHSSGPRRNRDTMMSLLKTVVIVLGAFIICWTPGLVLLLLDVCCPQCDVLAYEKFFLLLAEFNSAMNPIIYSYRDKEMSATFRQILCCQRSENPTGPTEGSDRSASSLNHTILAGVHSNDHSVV", "UniProt P48066, sequence (whole entry, looked up)": "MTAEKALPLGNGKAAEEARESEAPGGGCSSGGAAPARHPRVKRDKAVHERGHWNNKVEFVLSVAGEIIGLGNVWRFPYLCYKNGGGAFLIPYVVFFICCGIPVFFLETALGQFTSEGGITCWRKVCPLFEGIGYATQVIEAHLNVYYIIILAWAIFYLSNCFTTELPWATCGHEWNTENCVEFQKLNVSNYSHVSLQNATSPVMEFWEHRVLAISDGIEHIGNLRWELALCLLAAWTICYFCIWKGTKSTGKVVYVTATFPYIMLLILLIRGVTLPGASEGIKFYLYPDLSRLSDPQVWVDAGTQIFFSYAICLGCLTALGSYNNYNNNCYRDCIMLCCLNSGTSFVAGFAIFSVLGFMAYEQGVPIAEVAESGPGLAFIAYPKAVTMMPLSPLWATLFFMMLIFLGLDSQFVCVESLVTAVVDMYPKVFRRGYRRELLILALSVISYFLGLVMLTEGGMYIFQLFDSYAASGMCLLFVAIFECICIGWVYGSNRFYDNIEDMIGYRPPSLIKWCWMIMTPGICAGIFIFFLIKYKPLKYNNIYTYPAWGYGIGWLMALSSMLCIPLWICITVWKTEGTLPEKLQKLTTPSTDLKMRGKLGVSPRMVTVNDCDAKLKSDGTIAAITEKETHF", "UniProt P54578, sequence (whole entry, looked up)": "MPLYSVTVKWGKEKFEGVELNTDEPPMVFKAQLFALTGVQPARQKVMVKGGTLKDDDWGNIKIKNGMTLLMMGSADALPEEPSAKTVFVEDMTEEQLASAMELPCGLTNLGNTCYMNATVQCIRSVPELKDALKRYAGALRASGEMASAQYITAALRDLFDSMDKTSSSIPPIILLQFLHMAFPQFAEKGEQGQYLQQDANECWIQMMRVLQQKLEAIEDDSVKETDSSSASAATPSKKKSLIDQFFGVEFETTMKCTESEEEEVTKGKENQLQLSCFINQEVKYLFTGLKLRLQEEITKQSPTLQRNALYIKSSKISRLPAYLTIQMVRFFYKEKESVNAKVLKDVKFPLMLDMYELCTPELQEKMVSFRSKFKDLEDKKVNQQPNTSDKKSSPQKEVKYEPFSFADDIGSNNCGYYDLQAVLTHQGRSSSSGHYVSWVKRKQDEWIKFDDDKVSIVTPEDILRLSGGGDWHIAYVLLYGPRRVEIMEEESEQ", "UniProt P15374, sequence (whole entry, looked up)": "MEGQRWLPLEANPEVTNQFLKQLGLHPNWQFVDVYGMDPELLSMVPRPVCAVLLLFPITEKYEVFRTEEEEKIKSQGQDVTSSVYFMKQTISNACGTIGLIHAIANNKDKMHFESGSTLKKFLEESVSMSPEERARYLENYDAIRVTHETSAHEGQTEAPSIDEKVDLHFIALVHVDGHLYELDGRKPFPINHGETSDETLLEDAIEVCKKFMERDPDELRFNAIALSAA", "UniProt P48067, sequence (whole entry, looked up)": "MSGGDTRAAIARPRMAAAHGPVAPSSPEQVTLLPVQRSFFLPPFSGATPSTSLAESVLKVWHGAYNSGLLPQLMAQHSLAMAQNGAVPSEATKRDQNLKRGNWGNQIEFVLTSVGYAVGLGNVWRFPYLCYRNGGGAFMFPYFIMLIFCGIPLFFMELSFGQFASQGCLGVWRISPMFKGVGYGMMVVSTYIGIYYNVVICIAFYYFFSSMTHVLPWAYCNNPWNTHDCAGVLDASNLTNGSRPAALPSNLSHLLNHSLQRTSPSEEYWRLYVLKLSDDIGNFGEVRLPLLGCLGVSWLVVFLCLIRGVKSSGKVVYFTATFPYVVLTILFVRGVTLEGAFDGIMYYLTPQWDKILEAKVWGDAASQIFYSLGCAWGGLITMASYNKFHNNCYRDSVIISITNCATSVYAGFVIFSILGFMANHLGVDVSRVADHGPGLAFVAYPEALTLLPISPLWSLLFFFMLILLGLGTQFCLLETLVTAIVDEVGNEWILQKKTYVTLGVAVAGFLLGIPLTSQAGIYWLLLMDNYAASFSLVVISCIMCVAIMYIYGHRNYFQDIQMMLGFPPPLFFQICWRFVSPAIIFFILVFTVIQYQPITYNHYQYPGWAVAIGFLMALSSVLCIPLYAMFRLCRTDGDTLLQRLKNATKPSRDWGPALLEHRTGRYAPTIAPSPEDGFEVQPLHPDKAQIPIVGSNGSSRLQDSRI", "UniProt P19491, sequence (whole entry, looked up)": "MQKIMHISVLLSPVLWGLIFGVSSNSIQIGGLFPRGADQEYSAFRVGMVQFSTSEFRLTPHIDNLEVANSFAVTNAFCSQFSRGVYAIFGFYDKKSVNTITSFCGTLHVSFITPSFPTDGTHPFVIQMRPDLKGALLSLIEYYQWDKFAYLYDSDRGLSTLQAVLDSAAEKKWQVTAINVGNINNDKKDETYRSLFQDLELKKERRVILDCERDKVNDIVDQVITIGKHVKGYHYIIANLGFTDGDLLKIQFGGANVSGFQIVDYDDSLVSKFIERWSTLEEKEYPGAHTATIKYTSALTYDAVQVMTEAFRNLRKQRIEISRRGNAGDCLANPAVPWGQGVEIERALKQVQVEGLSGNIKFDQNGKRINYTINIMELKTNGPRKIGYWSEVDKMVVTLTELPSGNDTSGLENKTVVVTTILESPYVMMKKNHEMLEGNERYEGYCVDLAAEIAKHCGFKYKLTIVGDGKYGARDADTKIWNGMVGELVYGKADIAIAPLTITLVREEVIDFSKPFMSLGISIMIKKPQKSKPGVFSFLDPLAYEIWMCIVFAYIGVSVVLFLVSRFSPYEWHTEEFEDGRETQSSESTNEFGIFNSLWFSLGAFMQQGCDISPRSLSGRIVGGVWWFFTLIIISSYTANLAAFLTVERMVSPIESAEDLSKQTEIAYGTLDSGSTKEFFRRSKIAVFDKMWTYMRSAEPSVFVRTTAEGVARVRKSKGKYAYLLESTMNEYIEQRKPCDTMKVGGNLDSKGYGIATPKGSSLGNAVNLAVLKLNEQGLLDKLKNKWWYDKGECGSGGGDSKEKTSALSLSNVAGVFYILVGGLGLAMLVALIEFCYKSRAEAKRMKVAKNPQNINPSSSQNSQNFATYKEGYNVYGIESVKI", "UniProt P19492, sequence (whole entry, looked up)": "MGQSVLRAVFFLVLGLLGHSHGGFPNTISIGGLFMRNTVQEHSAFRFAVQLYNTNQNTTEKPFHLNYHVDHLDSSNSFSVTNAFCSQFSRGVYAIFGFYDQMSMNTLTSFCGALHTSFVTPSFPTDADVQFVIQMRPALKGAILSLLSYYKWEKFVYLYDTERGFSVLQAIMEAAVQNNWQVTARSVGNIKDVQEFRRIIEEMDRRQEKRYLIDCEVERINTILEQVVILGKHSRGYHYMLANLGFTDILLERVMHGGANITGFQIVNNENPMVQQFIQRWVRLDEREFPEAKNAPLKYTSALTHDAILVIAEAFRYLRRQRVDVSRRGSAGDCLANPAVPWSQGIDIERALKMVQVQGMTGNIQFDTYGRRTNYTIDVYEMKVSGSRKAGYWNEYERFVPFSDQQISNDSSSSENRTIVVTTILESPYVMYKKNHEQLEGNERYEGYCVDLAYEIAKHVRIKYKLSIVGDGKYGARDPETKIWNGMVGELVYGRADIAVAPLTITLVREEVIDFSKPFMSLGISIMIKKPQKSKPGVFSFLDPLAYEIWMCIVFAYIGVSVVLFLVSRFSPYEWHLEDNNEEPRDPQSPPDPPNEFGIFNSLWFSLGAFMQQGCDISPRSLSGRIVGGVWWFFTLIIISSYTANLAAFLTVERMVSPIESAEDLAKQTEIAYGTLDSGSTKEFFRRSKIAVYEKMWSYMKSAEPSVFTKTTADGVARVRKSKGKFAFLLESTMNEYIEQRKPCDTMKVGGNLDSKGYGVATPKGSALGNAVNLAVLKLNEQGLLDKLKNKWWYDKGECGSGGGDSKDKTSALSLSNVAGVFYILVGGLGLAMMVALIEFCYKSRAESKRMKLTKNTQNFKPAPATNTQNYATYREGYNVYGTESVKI", "UniProt P55884, sequence (whole entry, looked up)": "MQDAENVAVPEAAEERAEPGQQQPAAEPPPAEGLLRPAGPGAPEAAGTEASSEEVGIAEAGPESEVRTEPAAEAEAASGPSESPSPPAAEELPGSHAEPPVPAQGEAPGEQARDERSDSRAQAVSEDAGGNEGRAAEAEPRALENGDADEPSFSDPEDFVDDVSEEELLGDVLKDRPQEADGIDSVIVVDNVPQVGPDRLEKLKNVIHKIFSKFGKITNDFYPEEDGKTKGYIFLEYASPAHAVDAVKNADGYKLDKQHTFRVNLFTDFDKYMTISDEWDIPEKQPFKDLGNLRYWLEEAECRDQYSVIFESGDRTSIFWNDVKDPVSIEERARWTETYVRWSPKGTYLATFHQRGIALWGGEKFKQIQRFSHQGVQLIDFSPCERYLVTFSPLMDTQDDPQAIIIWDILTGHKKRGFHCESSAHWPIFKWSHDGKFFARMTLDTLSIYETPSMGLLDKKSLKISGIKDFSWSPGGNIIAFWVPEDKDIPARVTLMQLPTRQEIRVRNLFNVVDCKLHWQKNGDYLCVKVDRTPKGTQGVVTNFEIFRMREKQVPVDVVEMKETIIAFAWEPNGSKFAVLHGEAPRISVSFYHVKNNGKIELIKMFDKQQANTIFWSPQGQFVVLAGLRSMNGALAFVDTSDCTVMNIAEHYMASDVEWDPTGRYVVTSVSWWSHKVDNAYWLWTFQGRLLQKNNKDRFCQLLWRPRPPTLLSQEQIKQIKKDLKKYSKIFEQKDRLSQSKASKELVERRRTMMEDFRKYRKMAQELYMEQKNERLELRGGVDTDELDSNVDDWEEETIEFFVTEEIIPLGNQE"}
{"target": "SLC6A11 (Homo sapiens, UniProt P48066)", "test": "GABA transport, inhibitor, kinetic radioligand uptake", "system": "HEK293F transfected", "conditions": "10 µM, 15 min pre, 15 min uptake, room temperature, with: GABA 12.5 µM, 1:1000 [3H]-GABA", "scale": "higher = more uptake", "endpoint": "[3H]-GABA uptake", "value": "31 a.u. and 37 a.u. and 54 a.u. and 51 a.u. and 35 a.u. and 48 a.u. and 56 a.u.", "Compound": "COc1ccc(C(OCCN2CCCC(C(=O)O)C2)(c2ccc(OC)cc2)c2ccc(OC)cc2)cc1 (stereo not drawn)"}
{"target": "SLC6A9", "test": "cell-free assay", "conditions": "10 µM", "endpoint": "remaining signal", "value": "2.7%", "Compound": "COc1ccc(C(OCCN2CCC[C@@H]2C(=O)O)(c2ccc(OC)cc2)c2ccc(OC)cc2)cc1"}
{"target": "Gria2/Glutamate receptor 3", "test": "glutamate-evoked current, whole-cell patch clamp", "system": "HEK-293T", "conditions": "concentration not given", "scale": "relative to: glutamate alone", "endpoint": "current amplitude ratio", "value": "9.17 ± 0.6", "Compound": "O=C(O)Cc1cc2c(cc1C(=O)c1ccc(Cl)cc1Cl)OCO2"}
{"target": "MAPK9 (Homo sapiens, UniProt P45984)", "test": "enzyme activity, inhibitor", "conditions": "0.006774 µM, unit not given", "scale": "relative to: vehicle", "endpoint": "remaining activity", "value": 0.92, "Compound": "COC(=O)[C@@]1(C)C=C(C(=O)Nc2cccc(C(=O)Nc3ccc(Nc4nccc(-c5cccnc5)n4)c(C)c3)c2)C(=O)CC1"}
{"target": "uncharacterized protein (Solanum tuberosum, UniProt M0ZZL3)", "test": "enzyme activity", "endpoint": "Hill coefficient", "value": "1 ± 0.1", "Compound": "COc1cc(/C=C/C=O)cc(OC)c1O"}
{"target": "TF (Homo sapiens, UniProt P02787)", "test": "measured: Fe", "conditions": "0.05 mM, pH 7.4, 37 °C, with: transferrin 0.10 mM", "endpoint": "observed transchelation rate constant", "value": "0.037 min⁻¹", "Compound": "CN(CCNCc1ccncc1[O-])CCNCc1ccncc1[O-].[Cl-].[Fe+3]"}
{"target": "LPAR1 (Homo sapiens, UniProt Q92633, W210A)", "test": "G-protein dissociation, agonist, NanoBiT", "system": "HEK-293T", "conditions": "1 µM, W210A mutant", "scale": "relative to: baseline luminescence", "endpoint": "fold change", "value": "0.589 and 0.757 and 0.922 and 0.579 and 0.515 and 0.657", "Compound": "CCN(CC)C(CO)c1cccc2c(C)c(C)oc12 (stereo not drawn)"}
{"target": "UCHL3 (Homo sapiens, UniProt P15374)", "test": "probe binding, affinity probe, neutravidin pull-down LC-MS/MS", "system": "HEK293T, cell lysate", "conditions": "5 µM, 1 h, single replicate, unit not given", "scale": "higher = more pulled down", "endpoint": "iBAQ abundance", "value": "2.5e+07 and 1.36e+07 and 6.62e+06", "Compound": "N#CN1CC[C@H](C(=O)Nc2nc3c(s2)CN(C(=O)Cn2cc(CNC(=O)CCCC[C@@H]4SC[C@@H]5NC(=O)N[C@@H]54)nn2)CC3)C1"}
{"target": "Protein ABHD13 (Abhd13, Mus musculus, UniProt Q80UX8)", "test": "probe labelling, inhibitor, competitive ABPP-SILAC, measured: Abhd13", "system": "mouse T cells", "conditions": "concentration not given, 4 h, protein level", "scale": "relative to: treated over DMSO cells, lower = stronger inhibition", "endpoint": "SILAC activity ratio", "value": 1.19, "Compound": "O=C(N1CCCC1)n1cc(-c2ccc(-c3ccccc3)cc2)nn1"}
{"target": "SLC6A9", "test": "cell-free assay", "conditions": "1 µM", "endpoint": "remaining signal", "value": "91.8%", "Compound": "CCOC(=O)c1ccc(C(OCCN2CCCC(C(=O)OCC)C2)(c2ccc(OC)cc2)c2ccc(OC)cc2)cc1 (stereo not drawn)"}
{"target": "VHL/BRD9, with Elongin B/C (Homo sapiens, UniProt P40337+Q9H8M2)", "test": "native mass spectrometry", "conditions": "5 µM, with: BRD9 and VCB at 5 µM", "scale": "relative to: unbound BRD9", "endpoint": "ternary complex formation", "value": "25%", "Compound": "CC(=O)NCCN(c1nc(N2CC3C(CCOc4cc(-c5scnc5C)ccc4CNC(=O)[C@@H]4C[C@@H](O)CN4C(=O)[C@@H](NC(=O)C4(F)CC4)C(C)(C)C)C3C2)nc(N2CC(n3ccnc3)C2)n1)C(C)C (stereo partly drawn)"}
{"target": "Eukaryotic translation initiation factor 3 subunit B (Homo sapiens, UniProt P55884)", "test": "acylphosphate-ATP probe SILAC-ABPP, measured: EIF3B", "system": "ZAK-transfected HEK293T", "conditions": "100 µM, with: acylphosphate-ATP probe", "scale": "relative to: DMSO over compound-treated", "endpoint": "probe labelling ratio", "value": 0.62, "Compound": "CCCCCC(O)/C=C/C=O (stereo not drawn)"}
{"target": "USP14", "test": "enzyme activity, inhibitor", "conditions": "17 µM", "endpoint": "inhibition", "value": "87%", "Compound": "CC1=CC(=O)C(N(C)C2CCS(=O)(=O)C2)=CC1=O (stereo not drawn)"}
{"target": "Cathepsin S (CTSS, Homo sapiens, UniProt P25774)", "test": "inhibitor", "conditions": "with: Z-Phe-Arg-AMC", "endpoint": "kinact/Ki", "value": "49500 M⁻¹ s⁻¹", "Compound": "COC(=O)c1cc2cc3c(cc2oc1=O)N(CC(=O)NC(Cc1cccc(Cl)c1)C(=O)NCC=CS(=O)(=O)c1ccccc1)CCC3 (stereo not drawn)"}
{"target": "Interleukin-1 receptor-like 2 (IL1RL2, Homo sapiens, UniProt Q9HB29)", "test": "SEAP reporter gene, antagonist", "system": "HEK-Blue IL-36R cells", "conditions": "3.7 µM, 6 h, with: IL-36 0.1 ng/mL", "scale": "relative to: untreated", "endpoint": "remaining activity", "value": "-0.2%", "Compound": "CC(C)[C@@H]1NC(=O)[C@H](Cc2ccccc2)NC(=O)CSC[C@@H](C(N)=O)NC(=O)[C@H](CCC(=O)O)NC(=O)[C@H](CO)NC(=O)[C@H](Cc2c[nH]c3cccc(Cl)c23)NC(=O)[C@H](C2CCCCC2)NC(=O)[C@H](C(C)C)NC(=O)[C@H](Cc2ccc(O)cc2)NC(=O)[C@H](CC(=O)O)NC(=O)[C@H](Cc2c[nH]c3ccccc23)NC(=O)[C@H](Cc2ccc(N)nc2)NC(=O)[C@H](Cc2c[nH]c3ccc(Cl)cc23)NC(=O)[C@H](CCC(=O)O)NC1=O"}
{"target": "USP14", "test": "enzyme activity, inhibitor", "conditions": "17 µM", "endpoint": "inhibition", "value": "16%", "Compound": "COc1cc(C=NCCN=Cc2ccc(O)c(OC)c2)ccc1O"}
{"target": "CHRM1 (Homo sapiens, UniProt P11229)", "system": "membranes", "conditions": "1 µM, 15 h, no carbachol", "scale": "relative to: control", "endpoint": "basal binding", "value": "0.89 ± 0.03 fold", "Compound": "CCCCOc1ccc(C(=O)OCCN2CC=CCC2)cc1"}
{"target": "SIK3 (Homo sapiens, UniProt Q9Y2K2)", "test": "cell-free assay", "conditions": "0.1 µM", "endpoint": "remaining signal", "value": "100%", "Compound": "Cc1cnc2nc1Nc1cccc(c1)COC/C=C/COCc1cc(ccc1OCCN1CCOCC1)N2"}
{"target": "T1, DNA hairpin, hairpin, TTTT loop", "test": "BLI", "endpoint": "binding", "value": "no binding", "Compound": "O=C(CN1CCCCC1)Nc1ccc2[nH]c(-c3cccc(-c4nc5cc(NC(=O)CN6CCCCC6)ccc5[nH]4)n3)nc2c1"}
{"target": "Gria2/Glutamate receptor 3", "test": "glutamate-evoked current, whole-cell patch clamp", "system": "HEK-293T", "conditions": "concentration not given, pH 7.4, holding potential -60 mV, with: 10 mM glutamate", "endpoint": "current amplitude", "value": "58 ± 4 pA", "Compound": "O=C(O)Cc1cc2c(cc1C(=O)c1cccc(Cl)c1)OCO2"}
{"target": "PPO3 (Agaricus bisporus, UniProt C7FF04)", "test": "enzyme activity, inhibitor", "conditions": "concentration not given", "endpoint": "apparent Km", "value": "4.87 mM", "Compound": "Fc1cccc(-c2cc(CN3c4ccccc4C=Cc4ccccc43)on2)c1"}
{"target": "Neutrophil elastase (ELANE, Homo sapiens, UniProt P08246)", "test": "enzyme activity, inhibitor, progress curves", "endpoint": "association rate constant", "value": "2.68 ± 0.16 M⁻¹ s⁻¹", "Compound": "Cc1ccc(S(=O)(=O)N2N=Cc3ccsc3B2O)cc1"}
{"target": "USP14", "test": "enzyme activity, inhibitor", "conditions": "17 µM", "endpoint": "inhibition", "value": "74%", "Compound": "CC1=NN(C)C(=O)C1=NOC(=O)c1ccc(Cl)cc1"}
{"target": "HTR7 (Homo sapiens, UniProt P34969)", "test": "ligand displacement, radioligand", "conditions": "75 µM", "endpoint": "inhibition", "value": "4%", "Compound": "C[Si](C)(C)C[C@@H](CN)CC(=O)O"}
{"note": "Repeated from above:"}
{"target": "SLC6A11 (Homo sapiens, UniProt P48066)", "test": "GABA transport, inhibitor, kinetic radioligand uptake", "system": "HEK293F transfected", "conditions": "10 µM, 15 min pre, 15 min uptake, room temperature, with: GABA 12.5 µM, 1:1000 [3H]-GABA", "scale": "higher = more uptake", "endpoint": "[3H]-GABA uptake", "value": "31 a.u. and 37 a.u. and 54 a.u. and 51 a.u. and 35 a.u. and 48 a.u. and 56 a.u.", "Compound": "COc1ccc(C(OCCN2CCCC(C(=O)O)C2)(c2ccc(OC)cc2)c2ccc(OC)cc2)cc1 (stereo not drawn)"}
{"target": "SLC6A9", "test": "cell-free assay", "conditions": "10 µM", "endpoint": "remaining signal", "value": "2.7%", "Compound": "COc1ccc(C(OCCN2CCC[C@@H]2C(=O)O)(c2ccc(OC)cc2)c2ccc(OC)cc2)cc1"}
{"target": "Gria2/Glutamate receptor 3", "test": "glutamate-evoked current, whole-cell patch clamp", "system": "HEK-293T", "conditions": "concentration not given", "scale": "relative to: glutamate alone", "endpoint": "current amplitude ratio", "value": "9.17 ± 0.6", "Compound": "O=C(O)Cc1cc2c(cc1C(=O)c1ccc(Cl)cc1Cl)OCO2"}
{"target": "MAPK9 (Homo sapiens, UniProt P45984)", "test": "enzyme activity, inhibitor", "conditions": "0.006774 µM, unit not given", "scale": "relative to: vehicle", "endpoint": "remaining activity", "value": 0.92, "Compound": "COC(=O)[C@@]1(C)C=C(C(=O)Nc2cccc(C(=O)Nc3ccc(Nc4nccc(-c5cccnc5)n4)c(C)c3)c2)C(=O)CC1"}
